# Measurements of several laboratories.
# Each numbered part is a random draw from the data of one study; scales do not carry over between parts.

# Block 1
# Target: Histone acetyltransferase KAT6A, winged helix 2, GST fusion (KAT6A, Homo sapiens, UniProt Q92794, residues 85-181)
# Method: protein binding microarray
# Molecule type: double-stranded DNA, one strand shown
# Sample: in vitro
# Tested at: not given
# Notes: 8-mer, flanks averaged, mean of 2 arrays, mostly near background
# Reference: not given
# Reading: higher = stronger binding
# Construct (chain): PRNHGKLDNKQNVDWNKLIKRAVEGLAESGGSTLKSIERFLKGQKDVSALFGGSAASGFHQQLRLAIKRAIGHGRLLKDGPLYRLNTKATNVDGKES
Sequence,E-score
ATCCCTGA,-0.0638
CCTCTACA,-0.14
TCTTTGCA,0.122
AATCTTAG,0.0717
ATTAGAGG,-0.0569
AGTGTGAA,-0.0685
AACAAGAG,-0.1
GACATCTA,0.072
CCCTTAGC,-0.0143
AACGAACC,0.0963
GGCCAAAA,0.158
GCCTCTAA,-0.108
AGGGTGTG,0.028
CCAGCGAA,0.0734
ACGAAGAA,0.105
GCCCAACC,0.037
GCCAGATA,0.0141
GTCACAAC,0.0636

# Block 2
# Target: Transcription factor Sp1 (SP1, Homo sapiens, UniProt P08047, residues 1-785, full length assumed)
# Sequence of UniProt P08047 (whole entry, looked up): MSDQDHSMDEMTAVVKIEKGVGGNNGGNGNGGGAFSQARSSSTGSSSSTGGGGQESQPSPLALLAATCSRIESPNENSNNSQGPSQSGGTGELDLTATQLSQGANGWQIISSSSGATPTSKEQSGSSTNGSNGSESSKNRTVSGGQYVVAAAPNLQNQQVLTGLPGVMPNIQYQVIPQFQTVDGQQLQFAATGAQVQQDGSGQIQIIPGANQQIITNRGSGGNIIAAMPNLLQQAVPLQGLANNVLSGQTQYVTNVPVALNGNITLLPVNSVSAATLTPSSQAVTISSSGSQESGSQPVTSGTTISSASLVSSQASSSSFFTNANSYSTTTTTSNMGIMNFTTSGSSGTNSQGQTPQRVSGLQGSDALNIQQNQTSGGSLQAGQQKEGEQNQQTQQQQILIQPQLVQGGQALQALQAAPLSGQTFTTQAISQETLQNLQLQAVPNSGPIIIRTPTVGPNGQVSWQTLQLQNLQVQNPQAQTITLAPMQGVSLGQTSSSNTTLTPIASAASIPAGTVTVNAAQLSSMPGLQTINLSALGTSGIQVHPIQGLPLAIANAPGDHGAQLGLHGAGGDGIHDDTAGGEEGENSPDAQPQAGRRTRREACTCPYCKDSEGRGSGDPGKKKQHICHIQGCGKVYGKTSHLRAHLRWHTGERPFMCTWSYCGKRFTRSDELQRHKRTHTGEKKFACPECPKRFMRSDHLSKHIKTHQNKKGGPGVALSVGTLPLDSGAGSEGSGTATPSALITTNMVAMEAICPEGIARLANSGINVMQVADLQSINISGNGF
# Method: protein-binding microarray
# Molecule type: double-stranded DNA, one strand shown
# Sample: in vitro
# Tested at: not given
# Notes: k-mer, scored over probes, only values ≥0.25
# Reading: higher = stronger binding
Sequence,E-score
ACGCCCCG,0.332
AGTAAGTG,0.283
AGGAAACG,0.265
AGGGTATA,0.263
TACACCCA,0.31
GCCCACCC,0.47
ATGGGGAA,0.365
TAAGGGGA,0.315
AACAACAA,0.264
AACCATTA,0.253
ACCCCTCG,0.278
ATGACCCA,0.278
ATATATGG,0.397
GGGAGTGA,0.267
CCATCCCC,0.274
AATGATAC,0.291

# Block 3
# Target: Prothrombin, mature alpha-thrombin (F2, Homo sapiens, UniProt P00734)
# Method: aptamer microarray, sandwich
# Molecule type: DNA with 2'F-ANA
# Sample: in vitro
# Tested at: 200 nM
# Notes: whole 15-mer aptamer, many near background
# Added: Cy3 exosite-II aptamer, 400 nM
# Reading: higher = stronger binding
# Sequence: GGTTGGTGTGGTTGG
Modification,mean fluorescence intensity [a.u.]
2'F-ANA at 1 2 3 6 9 11 12 14,73.2
2'F-ANA at 2 7 11 12,720
2'F-ANA at 5 7 11 12 14 15,47.4
2'F-ANA at 1 2 3 4 6 7 8 11 12 14,78.3
2'F-ANA at 5 6 11 13,56.8
2'F-ANA at 1 3 4 9 11 12,355
2'F-ANA at 2 3 5 6 7 9 11,69.2
2'F-ANA at 1 2 4 5 7 8 9 12 13 15,119
2'F-ANA at 1 2 5 7 9 11 12 13 15,64
2'F-ANA at 3 4 5 7 10 14,54.6
2'F-ANA at 1 2 4 7 10 13 14,62.6
2'F-ANA at 1 2 3 5 9 10 13 14 15,48
2'F-ANA at 1 4 5 7 8 10 11 12 13 14 15,47.1
2'F-ANA at 2 4 9 11 13 15,159
2'F-ANA at 1 2 3 4 6 7 8 10 15,57.8
2'F-ANA at 4 5 6 8 9 12,159
2'F-ANA at 1 2 3 4 6 7 8 9 10 12 14,64.4
2'F-ANA at 3 6 7 9 10 11 12 13 14,315
2'F-ANA at 4 10,102
2'F-ANA at 2 3 6 7 9 11 12 14 15,317

# Block 4
# Target: Fragile X messenger ribonucleoprotein 1, C-terminal low-complexity region (Fmr1, Mus musculus, UniProt P35922)
# Method: RNA Bind-n-Seq
# Molecule type: RNA
# Sample: in vitro
# Tested at: 200 nM
# Notes: whole 134-nt RNA, ends assumed
# Added: 150 mM LiCl
# Reference: input library
# Reading: higher = stronger binding
# All molecules: 7-deaza-guanosine replaces G
Sequence,log2 enrichment
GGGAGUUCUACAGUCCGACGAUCGCAGGAAGUAAAAACAAAUGGAAAUGCUUCGGAUAGUGGCAGGGGCGGGGGUUGCUAAGGAAAGGGUGGGAUGGGAGUGGGUAAAGAGUUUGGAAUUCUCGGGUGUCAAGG,1.43
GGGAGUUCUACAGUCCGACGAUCCCUCAAGUCCUGUGCUACACAUCGUAUGUACCGAAUCGGUUUGGAAAGGAGGAAAGUAUUAUGUUACGCCGUUCGGAUCUGCACUUCCAGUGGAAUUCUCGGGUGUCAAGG,-0.203
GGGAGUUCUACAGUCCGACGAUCUAACUUUAGAGGAGGAUCUGAUGGAUAUGCCAGUGGACGUGGAUUUGGGGAUGGCUAUAAUGGGUAUGGAGGAGGACCUGGAGGUGGCAAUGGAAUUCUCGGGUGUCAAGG,-0.0158
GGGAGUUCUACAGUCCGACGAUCUGGGAGGUGGAUUUUGUUUAUUUUUUUAGCUCAUUUCCAGGGGUGGGAAUUUUUUUUUAAUAUGUGUCAUGAAUAAAUUUGUUUUUGAAAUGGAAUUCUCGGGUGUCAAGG,0.284
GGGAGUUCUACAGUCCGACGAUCCCUGUGCUACACAUCGUAUGUACCGAAUCGGGGUGGGGUUUUUUUGGGGAAAAAAAGGGGAAAGUAUUAUGUUACGCCGUUCGGAUCUGCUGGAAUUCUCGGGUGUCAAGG,-1.86
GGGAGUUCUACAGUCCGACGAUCCACAGACAAAAAGCACCCACACAGACACAGAGGGAAGGGGUUGGGAUGGGGACAGGGUGCACAGCAGGGCGGGGUAGGACCCCAGCCCCUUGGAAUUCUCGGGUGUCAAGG,0.236
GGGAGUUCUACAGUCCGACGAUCGCAGGAAGUAAAAACAAAUGGAAAUGCUUCGGAUAGUGGCAGGGGUGGGCGUUGCUAAGGAAAGGGUGGGAUGGGAGUGGGUAAAGAGUUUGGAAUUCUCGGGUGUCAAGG,1.57
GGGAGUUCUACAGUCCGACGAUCCACAGACAACACGCACCCACACAGACACAGAGGGAAGGGGUUGGGUUGGGGACAGGGUGCACAGCAGGGCGGGGUAGGACCCCAGCCCCUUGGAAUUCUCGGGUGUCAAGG,-0.319

# Block 5
# Target: Interferon regulatory factor 7, full length, phosphomimetic (IRF7, Homo sapiens, UniProt Q92985, residues 1-503, S101K/S471D/S472D/S475D/S476D/S477D/S483D/S484D/S487D)
# Sequence of UniProt Q92985 (whole entry, unmodified, looked up): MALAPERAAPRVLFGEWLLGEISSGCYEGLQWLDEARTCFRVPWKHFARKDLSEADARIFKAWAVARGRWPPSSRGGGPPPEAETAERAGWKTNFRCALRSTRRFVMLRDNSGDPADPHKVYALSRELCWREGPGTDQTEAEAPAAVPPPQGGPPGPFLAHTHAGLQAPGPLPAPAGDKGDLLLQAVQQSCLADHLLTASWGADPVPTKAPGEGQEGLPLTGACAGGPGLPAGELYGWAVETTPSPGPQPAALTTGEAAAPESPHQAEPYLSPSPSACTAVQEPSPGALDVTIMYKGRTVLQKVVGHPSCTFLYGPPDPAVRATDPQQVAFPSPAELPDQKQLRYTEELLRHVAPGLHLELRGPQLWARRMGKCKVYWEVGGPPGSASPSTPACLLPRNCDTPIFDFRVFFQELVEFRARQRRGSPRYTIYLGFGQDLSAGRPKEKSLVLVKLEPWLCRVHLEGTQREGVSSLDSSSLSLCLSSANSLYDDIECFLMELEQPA
# Method: protein-binding microarray
# Molecule type: double-stranded DNA, one strand shown
# Sample: in vitro
# Tested at: 250 nM
# Notes: 60-bp whole probe
# Added: salmon DNA 0.4 mg/ml
# Reference: random background probes
# Reading: higher = stronger binding
# Shared flanks, not repeated: GCCTAGCAC … GTCTTGATTCGCTTGACGCTGCTG
Sequence,log fluorescence
TCAATTTTCATTATTGCACTGTGCTAG,0.822 z-score
CTTCATGTTTTTTTCTACTTGTGCTAG,0.932 z-score
ATATATATCCATTATAGATGGTGCTAG,0.545 z-score
CTTTGACTCTTTCTGTCAGTGTGCTAG,0.542 z-score
GACGATTTCGGACTGGAGACGTGCTAG,0.22 z-score
TCAAACATCCCAATGGCACTGTGCTAG,-0.382 z-score
GACGGACTGGAATATCGGGACGTGCTA,-0.548 z-score
TTAGGTTTCCTTCTCCTGTAGTGCTAG,2.46 z-score
TTAGGACTGGGTCTCCGTTAGTGCTAG,-0.165 z-score
TTAGAACTGAGTTTCGATGAGTGCTAG,1.59 z-score
TCATGTCTGTGTCACAGACTGTGCTAG,0.0761 z-score
GACGATATAAGTTTCGAGACGTGCTAG,4.37 z-score
GTAGGTTTCGGACTGGGTTAGTGCTAG,3.35 z-score
GACGGGCTCCTTATCCTGACGTGCTAG,0.0353 z-score
GACGATTCCAGTTTCGAAACGTGCTAG,6.44 z-score
TAGTTGCAAGCCATGGGTGGGTGCTAG,-0.0878 z-score
AGATCCATGCTCTGTCGCAGGGTGCTA,-0.263 z-score
CGTTTTTCATTTTTTTTTTCGTGCTAG,4.87 z-score
CCAGGGCTCTAGAGAAATAGGTGCTAG,-0.372 z-score

# Repeated from above (block 5):
Sequence,log fluorescence
ATATATATCCATTATAGATGGTGCTAG,0.545 z-score
CTTTGACTCTTTCTGTCAGTGTGCTAG,0.542 z-score
GACGATTTCGGACTGGAGACGTGCTAG,0.22 z-score
TCAAACATCCCAATGGCACTGTGCTAG,-0.382 z-score
GACGGACTGGAATATCGGGACGTGCTA,-0.548 z-score
TTAGGTTTCCTTCTCCTGTAGTGCTAG,2.46 z-score
TTAGGACTGGGTCTCCGTTAGTGCTAG,-0.165 z-score
